Published values collected from several papers.
Parts stem from different laboratories: compare values within a part only.
UniProt O00444, sequence (whole entry, looked up): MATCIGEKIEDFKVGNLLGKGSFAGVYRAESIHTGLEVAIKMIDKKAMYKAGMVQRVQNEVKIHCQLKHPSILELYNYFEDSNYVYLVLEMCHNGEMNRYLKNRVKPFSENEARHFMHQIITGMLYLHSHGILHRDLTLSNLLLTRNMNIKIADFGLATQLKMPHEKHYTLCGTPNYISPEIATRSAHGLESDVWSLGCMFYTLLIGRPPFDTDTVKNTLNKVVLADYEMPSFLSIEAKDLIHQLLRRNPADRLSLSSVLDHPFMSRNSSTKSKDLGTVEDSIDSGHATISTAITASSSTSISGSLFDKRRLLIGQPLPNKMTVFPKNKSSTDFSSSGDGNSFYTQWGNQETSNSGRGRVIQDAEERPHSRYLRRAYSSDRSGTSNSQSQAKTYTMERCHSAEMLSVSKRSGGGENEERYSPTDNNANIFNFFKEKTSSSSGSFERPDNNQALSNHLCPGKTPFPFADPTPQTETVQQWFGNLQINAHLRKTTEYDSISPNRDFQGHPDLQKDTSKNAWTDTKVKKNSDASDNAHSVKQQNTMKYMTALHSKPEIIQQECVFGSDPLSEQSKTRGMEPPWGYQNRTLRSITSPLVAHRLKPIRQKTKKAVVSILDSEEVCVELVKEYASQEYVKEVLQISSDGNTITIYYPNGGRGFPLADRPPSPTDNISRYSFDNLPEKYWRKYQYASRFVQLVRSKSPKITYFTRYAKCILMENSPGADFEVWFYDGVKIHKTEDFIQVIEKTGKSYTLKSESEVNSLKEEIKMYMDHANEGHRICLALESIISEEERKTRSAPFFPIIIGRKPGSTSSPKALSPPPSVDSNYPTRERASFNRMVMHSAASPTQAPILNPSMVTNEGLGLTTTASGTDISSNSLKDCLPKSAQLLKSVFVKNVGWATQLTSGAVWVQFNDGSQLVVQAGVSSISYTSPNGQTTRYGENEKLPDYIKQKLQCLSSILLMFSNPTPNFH
UniProt P53350, sequence (whole entry, looked up): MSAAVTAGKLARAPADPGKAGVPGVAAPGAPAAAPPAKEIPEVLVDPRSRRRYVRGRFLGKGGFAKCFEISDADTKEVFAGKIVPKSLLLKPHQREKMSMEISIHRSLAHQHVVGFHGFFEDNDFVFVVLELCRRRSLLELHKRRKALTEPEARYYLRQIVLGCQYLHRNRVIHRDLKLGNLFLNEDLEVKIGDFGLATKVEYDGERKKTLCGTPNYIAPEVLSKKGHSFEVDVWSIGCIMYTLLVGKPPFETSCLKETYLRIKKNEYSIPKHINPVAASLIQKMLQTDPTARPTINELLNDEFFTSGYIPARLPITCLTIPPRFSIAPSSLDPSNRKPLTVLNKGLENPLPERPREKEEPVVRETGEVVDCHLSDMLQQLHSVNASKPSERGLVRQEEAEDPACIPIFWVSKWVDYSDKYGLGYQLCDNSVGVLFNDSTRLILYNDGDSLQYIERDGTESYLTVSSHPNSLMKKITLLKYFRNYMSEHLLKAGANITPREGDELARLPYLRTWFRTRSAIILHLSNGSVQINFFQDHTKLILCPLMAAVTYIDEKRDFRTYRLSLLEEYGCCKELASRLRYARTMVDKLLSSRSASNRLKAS
UniProt Q9Y2U5, sequence (whole entry, looked up): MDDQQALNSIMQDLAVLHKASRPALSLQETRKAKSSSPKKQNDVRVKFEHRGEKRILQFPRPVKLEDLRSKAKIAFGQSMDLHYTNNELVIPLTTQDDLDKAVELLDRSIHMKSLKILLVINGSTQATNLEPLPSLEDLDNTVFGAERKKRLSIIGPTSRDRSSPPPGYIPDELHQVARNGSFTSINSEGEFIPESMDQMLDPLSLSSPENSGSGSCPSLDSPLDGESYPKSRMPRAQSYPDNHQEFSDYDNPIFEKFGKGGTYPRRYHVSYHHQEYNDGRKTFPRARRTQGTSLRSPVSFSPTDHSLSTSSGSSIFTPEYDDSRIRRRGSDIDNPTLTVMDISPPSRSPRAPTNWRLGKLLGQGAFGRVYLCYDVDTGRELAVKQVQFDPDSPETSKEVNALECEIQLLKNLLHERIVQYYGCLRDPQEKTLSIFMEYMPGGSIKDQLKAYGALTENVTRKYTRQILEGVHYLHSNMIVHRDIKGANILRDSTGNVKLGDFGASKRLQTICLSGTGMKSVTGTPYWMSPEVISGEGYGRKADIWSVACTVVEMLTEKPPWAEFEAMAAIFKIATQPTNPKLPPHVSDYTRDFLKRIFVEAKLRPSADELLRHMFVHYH
UniProt Q9UK32, sequence (whole entry, looked up): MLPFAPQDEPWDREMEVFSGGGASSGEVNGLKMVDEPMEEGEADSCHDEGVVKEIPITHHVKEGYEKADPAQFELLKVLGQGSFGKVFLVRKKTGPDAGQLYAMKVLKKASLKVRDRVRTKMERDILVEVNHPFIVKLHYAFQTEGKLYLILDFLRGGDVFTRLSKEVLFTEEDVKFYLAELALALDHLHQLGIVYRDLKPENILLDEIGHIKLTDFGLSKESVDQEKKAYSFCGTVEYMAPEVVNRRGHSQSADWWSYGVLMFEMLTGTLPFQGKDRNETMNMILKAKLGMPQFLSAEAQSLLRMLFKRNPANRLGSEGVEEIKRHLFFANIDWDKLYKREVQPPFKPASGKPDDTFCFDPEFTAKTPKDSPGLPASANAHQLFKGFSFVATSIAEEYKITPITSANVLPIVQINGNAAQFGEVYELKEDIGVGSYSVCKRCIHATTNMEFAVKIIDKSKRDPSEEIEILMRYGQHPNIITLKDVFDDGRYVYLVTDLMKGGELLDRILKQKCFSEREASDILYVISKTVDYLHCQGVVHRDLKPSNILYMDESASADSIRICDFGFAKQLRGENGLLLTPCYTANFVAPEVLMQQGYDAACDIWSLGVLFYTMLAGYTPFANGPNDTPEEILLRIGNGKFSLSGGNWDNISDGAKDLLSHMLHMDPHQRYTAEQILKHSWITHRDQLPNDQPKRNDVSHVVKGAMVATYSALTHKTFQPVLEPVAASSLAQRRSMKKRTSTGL
UniProt Q32MK0, sequence (whole entry, looked up): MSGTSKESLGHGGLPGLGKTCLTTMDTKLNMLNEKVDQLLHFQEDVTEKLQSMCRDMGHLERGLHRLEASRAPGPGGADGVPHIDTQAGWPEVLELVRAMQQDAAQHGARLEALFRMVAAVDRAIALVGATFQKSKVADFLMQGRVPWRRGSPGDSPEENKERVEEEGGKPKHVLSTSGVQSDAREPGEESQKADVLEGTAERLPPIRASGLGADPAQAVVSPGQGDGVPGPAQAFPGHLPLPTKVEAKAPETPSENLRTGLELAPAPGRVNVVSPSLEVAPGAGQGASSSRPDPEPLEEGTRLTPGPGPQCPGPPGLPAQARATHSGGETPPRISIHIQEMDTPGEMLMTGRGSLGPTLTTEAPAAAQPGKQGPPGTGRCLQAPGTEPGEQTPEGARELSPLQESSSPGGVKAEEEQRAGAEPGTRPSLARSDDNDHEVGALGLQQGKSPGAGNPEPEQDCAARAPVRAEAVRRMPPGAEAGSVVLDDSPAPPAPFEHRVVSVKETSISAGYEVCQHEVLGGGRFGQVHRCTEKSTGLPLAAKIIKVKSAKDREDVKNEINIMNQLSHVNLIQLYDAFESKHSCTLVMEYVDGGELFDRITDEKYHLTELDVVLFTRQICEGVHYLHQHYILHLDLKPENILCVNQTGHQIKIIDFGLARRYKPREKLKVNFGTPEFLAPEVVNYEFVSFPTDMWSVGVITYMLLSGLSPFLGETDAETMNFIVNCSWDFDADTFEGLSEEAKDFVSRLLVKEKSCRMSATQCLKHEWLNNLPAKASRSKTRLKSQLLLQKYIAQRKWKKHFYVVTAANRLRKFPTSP
UniProt O75582, sequence (whole entry, looked up): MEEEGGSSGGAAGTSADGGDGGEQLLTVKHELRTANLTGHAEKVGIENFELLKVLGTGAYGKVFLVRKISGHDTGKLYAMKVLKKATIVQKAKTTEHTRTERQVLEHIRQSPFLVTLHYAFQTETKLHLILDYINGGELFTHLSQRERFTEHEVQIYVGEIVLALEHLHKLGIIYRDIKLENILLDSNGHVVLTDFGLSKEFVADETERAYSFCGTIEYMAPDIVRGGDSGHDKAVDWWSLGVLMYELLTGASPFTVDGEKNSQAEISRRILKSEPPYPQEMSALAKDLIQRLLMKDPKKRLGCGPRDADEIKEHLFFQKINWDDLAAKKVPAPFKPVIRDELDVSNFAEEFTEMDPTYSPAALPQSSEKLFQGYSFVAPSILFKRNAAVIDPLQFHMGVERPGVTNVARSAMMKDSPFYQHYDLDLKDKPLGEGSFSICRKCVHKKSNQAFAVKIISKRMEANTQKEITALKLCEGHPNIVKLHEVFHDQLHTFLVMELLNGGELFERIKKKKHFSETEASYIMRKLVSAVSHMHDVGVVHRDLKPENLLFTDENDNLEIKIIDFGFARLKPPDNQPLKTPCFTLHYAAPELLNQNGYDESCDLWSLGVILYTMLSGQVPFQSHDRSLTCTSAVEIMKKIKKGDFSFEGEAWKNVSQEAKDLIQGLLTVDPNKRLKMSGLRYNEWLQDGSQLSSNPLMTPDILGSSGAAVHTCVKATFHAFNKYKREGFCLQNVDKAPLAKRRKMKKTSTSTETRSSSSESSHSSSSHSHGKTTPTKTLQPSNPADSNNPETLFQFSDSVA
UniProt Q9Y243, sequence (whole entry, looked up): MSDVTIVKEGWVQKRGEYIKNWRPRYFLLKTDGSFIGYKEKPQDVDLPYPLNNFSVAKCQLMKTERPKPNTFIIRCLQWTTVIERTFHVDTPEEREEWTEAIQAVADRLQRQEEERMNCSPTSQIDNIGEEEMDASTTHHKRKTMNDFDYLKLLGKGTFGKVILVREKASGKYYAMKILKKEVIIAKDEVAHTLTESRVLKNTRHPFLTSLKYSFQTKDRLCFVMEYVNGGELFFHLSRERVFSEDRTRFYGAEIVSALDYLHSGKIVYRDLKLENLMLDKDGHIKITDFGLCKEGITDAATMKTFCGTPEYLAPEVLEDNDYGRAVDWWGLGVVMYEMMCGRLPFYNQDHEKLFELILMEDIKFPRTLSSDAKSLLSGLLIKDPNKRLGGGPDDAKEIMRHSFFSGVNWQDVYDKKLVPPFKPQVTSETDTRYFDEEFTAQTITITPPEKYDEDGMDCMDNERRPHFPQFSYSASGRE

Study 1 — observed: enzyme activity; action: inhibitor; concentration: 0.5 µM; reference: control; endpoint: remaining activity
Target: Serine/threonine-protein kinase STK11 (STK11, Homo sapiens, UniProt Q15831)
Target sequence (Q15831 1-433): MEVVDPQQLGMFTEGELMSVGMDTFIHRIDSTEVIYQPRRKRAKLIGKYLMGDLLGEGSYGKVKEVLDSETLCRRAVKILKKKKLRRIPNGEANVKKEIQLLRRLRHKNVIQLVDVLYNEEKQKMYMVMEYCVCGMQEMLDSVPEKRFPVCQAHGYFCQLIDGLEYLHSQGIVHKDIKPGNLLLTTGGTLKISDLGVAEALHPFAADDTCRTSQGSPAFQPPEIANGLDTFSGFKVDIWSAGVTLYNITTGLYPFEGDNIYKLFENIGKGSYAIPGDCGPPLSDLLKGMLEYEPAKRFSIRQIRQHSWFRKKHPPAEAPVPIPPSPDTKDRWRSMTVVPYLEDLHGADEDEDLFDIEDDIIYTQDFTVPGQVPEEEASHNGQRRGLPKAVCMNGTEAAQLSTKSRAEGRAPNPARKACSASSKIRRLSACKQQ
Nc1ccc2ncnc(NCCc3ccc(Oc4ccccc4)cc3)c2c1: 97.6%
O=c1c2ccccc2[nH]c(=S)n1CCN1CCC(=C(c2ccc(F)cc2)c2ccc(F)cc2)CC1: 107%
C#Cc1cccc(Nc2ncnc3cc(OCCOC)c(OCCOC)cc23)c1: 106%
COc1cc2nccc(Oc3ccc(NC(=S)NC(=O)c4ccccc4C)cc3)c2cc1OC: 106%
Nc1ncnc2n[nH]c(Nc3ccc(F)cc3)c12: 97.1%
COc1ccc(CNC(=O)Nc2ncc([N+](=O)[O-])s2)cc1: 100%
N#CC(C#N)=C(N)/C(C#N)=C/c1ccc(O)cc1: 96.5%
CC(C)[C@H](CO)Nc1nc(Nc2cc(N)cc(Cl)c2)c2ncn(C(C)C)c2n1: 60.2%
O=C1NC(=O)C(c2cn(CCCn3ccnc3)c3ccccc23)=C1Nc1ccccc1: 89.9%
O=S(=O)(c1cccc2cnccc12)N1CCCNCC1: 97.6%
Cc1cccc(-c2[nH]c(C(C)(C)C)nc2-c2ccc3c(c2)OCO3)n1: 91.3%
COc1ccc(OC)c2c(=S)c3ccccc3[nH]c12: 84.4%

Study 2 — method: aptamer microarray, sandwich; molecule type: DNA with 2'F-ANA; medium: in vitro; concentration: 200 nM; added: Cy3 exosite-II aptamer, 400 nM; reading: higher = stronger binding; endpoint: mean fluorescence intensity; strand: GGTTGGTGTGGTTGG
Target: Prothrombin, mature alpha-thrombin (F2, Homo sapiens, UniProt P00734)
Setting: whole 15-mer aptamer, many near background
2'F-ANA at 1 2 6 7 8 9 10 12 14: 65.2 a.u.
2'F-ANA at 2 12 14 15: 195 a.u.
2'F-ANA at 1 2 5 6 7 8 9 11 12 14 15: 52.3 a.u.
2'F-ANA at 3 4 5 6 9 10 11 12 13: 53.3 a.u.
2'F-ANA at 1 2 3 6 8 9 11 15: 177 a.u.
2'F-ANA at 1 3 5 6 7 8 9 10: 64.4 a.u.
2'F-ANA at 1 2 5 11 14 15: 51.8 a.u.
2'F-ANA at 2 3 6 8 9 11 14: 363 a.u.

Study 3 — observed: cell-free assay; method: competition with immobilised ligand; concentration: 1 µM; endpoint: remaining binding
SMILES: O=C(NCc1ncc(C(F)(F)F)cc1Cl)c1ccc2c(c1)C1(CCS(=O)(=O)CC1)[C@@H](C1CC1)N2S(=O)(=O)c1ccc(F)cc1
Ribosomal protein S6 kinase alpha-6, N-terminal kinase domain (RPS6KA6, Homo sapiens, UniProt Q9UK32): 84%
MYLK3 (Homo sapiens, UniProt Q32MK0): 76%
CDK18 (Homo sapiens, UniProt Q07002): 100%
Ribosomal protein S6 kinase alpha-5, N-terminal kinase domain (RPS6KA5, Homo sapiens, UniProt O75582): 100%
MAP3K2 (Homo sapiens, UniProt Q9Y2U5): 88%
AKT3 (Homo sapiens, UniProt Q9Y243): 86%
TAOK3 (Homo sapiens, UniProt Q9H2K8): 80%
Tyrosine-protein kinase ABL1, non-phosphorylated (ABL1, Homo sapiens, UniProt P00519, T315I): 72%
Non-receptor tyrosine-protein kinase TYK2, JH1 (TYK2, Homo sapiens, UniProt P29597): 46%
FLT3 (Homo sapiens, UniProt P36888, D835V): 76%
PLK1 (Homo sapiens, UniProt P53350): 82%
CDKL2 (Homo sapiens, UniProt Q92772): 100%
CHUK (Homo sapiens, UniProt O15111): 84%
PLK4 (Homo sapiens, UniProt O00444): 92%

Mixed results
AAAAAAAA (biotin)
signal ratio (RNA-binding motif protein, X-linked-like-2, RRM domain (RBMXL2, Homo sapiens, UniProt O75526, residues 1-110); protein domain microarray; RNA, in vitro; not given, poly(A) 8-mer RNA, whole probe, immobilized GST-fusion domains, most near background; reference: GST loading signal, higher = stronger binding): 4.54

A few entries again (study 2):
2'F-ANA at 2 12 14 15: 195 a.u.
2'F-ANA at 1 2 5 6 7 8 9 11 12 14 15: 52.3 a.u.
2'F-ANA at 3 4 5 6 9 10 11 12 13: 53.3 a.u.
2'F-ANA at 1 2 3 6 8 9 11 15: 177 a.u.
2'F-ANA at 1 3 5 6 7 8 9 10: 64.4 a.u.
